Measurements from different studies.
Numbered parts are unrelated; each lists some results of a single study. Substitutions count along the parent as printed.

Block 1
Target: CCNA1, cyclin fold, Cln2 fusion (human)
Technique: yeast growth competition, sequencing
Medium: yeast
Setting: weak parent motif
Reference: not given
Reading: higher = stronger binding
Starting sequence: PKN2 docking peptide (human); VSAVQKLDFSDTM; partner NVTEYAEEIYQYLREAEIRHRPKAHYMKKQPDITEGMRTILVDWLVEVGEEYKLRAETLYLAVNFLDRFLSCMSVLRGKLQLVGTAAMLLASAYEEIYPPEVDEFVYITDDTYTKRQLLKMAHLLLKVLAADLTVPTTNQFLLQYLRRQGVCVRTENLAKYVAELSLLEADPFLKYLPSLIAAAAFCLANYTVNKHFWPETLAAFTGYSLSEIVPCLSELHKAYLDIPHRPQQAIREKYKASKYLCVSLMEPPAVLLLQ
Change | normalised enrichment score
L7W | 0.295
S10Q | -0.142
S10P | 0.332
K6S | 0.388
M13C | 0.134
D11T | 0.157
S2N | 0.122
F9D | 0.23
S10Y | 0.35
V4T | -0.0456
V4F | 0.178
L7E | 0.281
V1S | 0.0818
S2Y | -0.00621
D8S | 0.268
L7A | 0.0484
K6Y | 0.119
K6V | 0.283
L7H | 0.311
K6W | 0.326
K6A | 0.226
V1K | 0.281

Block 2
Target: Interferon regulatory factor 3, full length, phosphomimetic (IRF3, Homo sapiens, UniProt Q14653, residues 1-427, S386D/S396D/S398D/S402D/T404D/S405D)
Technique: protein-binding microarray
Molecule type: double-stranded DNA, one strand shown
Medium: in vitro
Tested at: 2540 nM top
Setting: 60-bp whole probe
Together with: salmon DNA 0.4 mg/ml
Reference: random background probes
Reading: higher = stronger binding
Constant ends, left off below: GCCTAGCAC … GTCTTGATTCGCTTGACGCTGCTG
Construct (chain): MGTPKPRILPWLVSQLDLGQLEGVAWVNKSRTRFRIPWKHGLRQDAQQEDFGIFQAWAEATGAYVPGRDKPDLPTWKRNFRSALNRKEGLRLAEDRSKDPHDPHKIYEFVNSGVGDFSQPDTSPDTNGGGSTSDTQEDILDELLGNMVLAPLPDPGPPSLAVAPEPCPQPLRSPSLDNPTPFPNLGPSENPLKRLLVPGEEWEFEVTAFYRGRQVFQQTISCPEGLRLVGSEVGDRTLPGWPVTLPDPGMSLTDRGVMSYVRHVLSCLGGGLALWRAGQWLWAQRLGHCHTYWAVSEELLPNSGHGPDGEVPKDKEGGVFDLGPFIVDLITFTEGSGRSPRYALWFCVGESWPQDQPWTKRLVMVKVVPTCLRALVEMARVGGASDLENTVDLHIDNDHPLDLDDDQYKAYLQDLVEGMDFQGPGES
Oligonucleotide | fitted relative affinity
GACGGTATCGGTTTCGAGACGTGCTAG | 6.83 z-score
TTAGATATCAGTCTCGATTCGTGCTAG | 1.51 z-score
TTAGGACTTGGGACTGGGTTAGTGCTA | -1.17 z-score
TAAGATTCCAGTTTCGATTAGTGCTAG | 5.06 z-score
GACGGACTGGACACTGGGGAAGTGCTA | -0.629 z-score
TCAATTCTCCACTTGTGACTGTGCTAG | 1.31 z-score
GACGGTTTCGGTTCCGGAACGTGCTAG | 10.8 z-score
GGCGGTCTCGGACTGGGGACGTGCTAG | -0.242 z-score
TTAGGTCTCCAACTGCTTTAGTGCTAG | 0.525 z-score
TTAGGTTTCGGTTTCTGTTAGTGCTAG | 10.6 z-score
CTTTGACTCTTTCTGTCAGTGTGCTAG | 0.875 z-score
GACGGTTTCCTTATCTTGACGTGCTAG | 7.37 z-score
TCATTTTTTTCTTTTATACTGTGCTAG | 1.95 z-score
TCAGCTATTTTATATGCTACTGTGCTA | 0.34 z-score
GACGGACAGCTTCTCCTGACGTGCTAG | -0.596 z-score
TTAGGTTTCGGTATCGGTTCGTGCTAG | 9.37 z-score
TTAGGACTGCTTCTCCTGTAGTGCTAG | -0.353 z-score
GACGATATCAGCCTCGAGACGTGCTAG | -0.105 z-score
TTAGGTGTCGGTTTCGGTTAGTGCTAG | 6.75 z-score

Block 3
Target: Prothrombin, mature alpha-thrombin (F2, Homo sapiens, UniProt P00734)
Technique: aptamer microarray, sandwich
Molecule type: DNA with 2'F-ANA
Medium: in vitro
Tested at: 200 nM
Setting: whole 15-mer aptamer, many near background
Together with: Cy3 exosite-II aptamer, 400 nM
Reading: higher = stronger binding
Oligonucleotide: GGTTGGTGTGGTTGG
Modification | mean fluorescence intensity [a.u.]
2'F-ANA at 1 5 9 10 14 15 | 48.3
2'F-ANA at 2 4 7 8 9 10 11 14 15 | 75.3
2'F-ANA at 1 3 6 7 9 10 12 13 | 97.9
2'F-ANA at 2 3 4 8 9 10 13 14 15 | 154
2'F-ANA at 1 2 4 5 7 11 12 13 14 15 | 47.4
2'F-ANA at 5 9 11 13 15 | 51.8
2'F-ANA at 1 3 4 6 8 9 11 12 14 15 | 82.8
2'F-ANA at 4 5 7 9 | 75.4
2'F-ANA at 2 6 8 9 12 15 | 665
2'F-ANA at 2 3 5 7 9 10 12 13 | 105
2'F-ANA at 2 5 7 10 13 15 | 61.9
2'F-ANA at 4 5 6 7 8 9 10 11 12 | 55.1
2'F-ANA at 2 5 7 9 10 11 13 | 57.8
2'F-ANA at 2 3 4 6 9 10 11 15 | 201
2'F-ANA at 4 5 6 9 13 | 60.9
2'F-ANA at 3 12 13 14 | 602
2'F-ANA at 1 3 4 5 10 11 15 | 49.4
2'F-ANA at 4 8 9 13 14 15 | 71.6
2'F-ANA at 1 3 5 6 7 10 15 | 106
2'F-ANA at 2 3 5 6 7 8 13 14 15 | 51.3
2'F-ANA at 2 5 7 11 12 13 14 15 | 71.9
2'F-ANA at 4 5 6 11 12 14 | 42.4
2'F-ANA at 3 4 5 8 10 14 15 | 53.5
2'F-ANA at 1 5 6 7 8 9 10 12 | 49.1

Block 4
Target: RING finger protein unkempt homolog, zinc fingers 1-6, GST-SBP tag (UNK, Homo sapiens, UniProt Q9C0B0, residues 30-357)
Sequence of UniProt Q9C0B0 (30-357, looked up): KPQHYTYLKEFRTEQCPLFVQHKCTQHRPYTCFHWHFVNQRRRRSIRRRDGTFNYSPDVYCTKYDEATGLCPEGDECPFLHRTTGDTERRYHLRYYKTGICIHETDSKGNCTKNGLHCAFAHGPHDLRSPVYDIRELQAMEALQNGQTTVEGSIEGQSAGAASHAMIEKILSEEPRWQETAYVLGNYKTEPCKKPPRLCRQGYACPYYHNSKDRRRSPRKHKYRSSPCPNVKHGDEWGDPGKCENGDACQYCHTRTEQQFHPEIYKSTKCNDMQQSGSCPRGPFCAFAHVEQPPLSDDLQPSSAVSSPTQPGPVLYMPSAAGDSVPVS
Technique: RNA Bind-n-Seq
Molecule type: RNA
Medium: in vitro
Tested at: not given
Setting: RNA with constant flanks, human-mouse chimeric sites, ends assumed
Reference: input RNA pool
Reading: higher = stronger binding
Oligonucleotide | bound/input enrichment
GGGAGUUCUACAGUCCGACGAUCUUAUCCAAGACUCAACGAAAGACUCCAACGGUUAUUCAUAAACAUUACCAAAUACAUCGCAUUAGACAUUUUUAUAUGAGAAAAGUCAAAUUUACUCAACAGAAUUACCAUGACAGACUGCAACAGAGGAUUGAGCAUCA | 4.9 ratio
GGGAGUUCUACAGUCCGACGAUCUGUAACUUAUCUGUAAAAAAGGUUUCUCCCUACUGUCCAAAAAAUAUGCAUGUAUAGUAAUUAGGACUUCAUUCCUCCAUGUUUUCUUCCCUUAUCUUACUGUCAUUGUCCUUAAACCUUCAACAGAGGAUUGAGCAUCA | 0.762 ratio
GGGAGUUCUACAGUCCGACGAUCUUCAAAGGCUGUGUUAUCUGUGUCAUUUCAUAAGUAACUCUGGGGGAGGGAAAUUCUGUUCUUUUGUUUAAUUUUCCCCCAAAUGAAACCAACAUGCGUGUUGAAGAACUGAGAAAAAAUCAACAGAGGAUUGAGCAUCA | 0.165 ratio
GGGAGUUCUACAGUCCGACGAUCGUGUCCUGCUUUCAACUUAAAUCACUGAGGCAUCUCUACUGUUCUGUUAAAAUCAGGACUGUAGCGCUGUGUCACCACAGAUGAGAACAGAAGCAGCCUUUCUGUGGAGGGUGGGAAUGACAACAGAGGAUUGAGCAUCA | 0.144 ratio
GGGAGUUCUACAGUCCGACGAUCCACGUGUCUGCAGUACUUGAUGUGGAUUACUCUCCCACUGGGAAGGAAUUUGUGUCUGCCAGCUUUGAUAAGUCUAUUCGAAUCUUUCCUGUGGACAAGAGCCGAAGCAGGGAAGUGUAUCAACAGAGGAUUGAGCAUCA | 0.143 ratio
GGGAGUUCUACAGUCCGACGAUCCGGAGCCCCUCCCUCUCACAGGCCCAAGAUAUAACCCACCAGUGCCUUUUGUCUUCCUGUCAGCUCUAAUCAAUCAUCCUGUCCUCUCACGCCCACACCAAGUGCCCAAAGUGGGGAGGGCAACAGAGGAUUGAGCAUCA | 0.315 ratio
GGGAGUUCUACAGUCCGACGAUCCCAAUUGUGGAGCAGUACUUGAAGACAAAGAAAAAUUCUAAUAAUUUAAUCAUCAAGUACAUUAGCUGCCGGCUGGUGACACUCAUCAUUAUACUGUUAGCGUGUAUCUACUUGAGCUAUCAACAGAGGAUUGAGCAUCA | 0.314 ratio
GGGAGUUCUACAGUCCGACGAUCCUUAUGGCUGCAGAAACAGGAAGUGGAAAAACUGGUGCAUUUAGUAUUCCCGUUAUCCAGAUAGUGUAUGAAACUCUGAAAGACCAACAGGAAGGAAAGAAAGGGAAAACAACAAUUAAACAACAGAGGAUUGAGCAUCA | 1.29 ratio

Further values, each from its own experiment
Substance | target | assay | system | setting | how to read | endpoint | result
PhoQ, residues 284 288 289 292 302 303 AMDMFI | PhoP, residues 12 14 15 18 19 LQHIR (Escherichia coli, UniProt P23836) | Sort-seq, refers to: YFP reporter | E. coli | PhoQ-PhoP variant library, together with: 10 µM Mg2+ | reference: high Mg2+ state, higher = stronger signaling | fold induction | 1.16

For quick reference, copied from above (block 1):
Change | normalised enrichment score
L7W | 0.295
S10Q | -0.142
S2Y | -0.00621
D11T | 0.157
V1S | 0.0818
K6S | 0.388
K6A | 0.226
D8S | 0.268
V4F | 0.178
S10Y | 0.35
K6Y | 0.119
S2N | 0.122
